Results of several laboratories.
A part holds a random share of what one study measured. Changes are numbered by the printed parent chain.
Sequence of UniProt P50613 (whole entry, looked up): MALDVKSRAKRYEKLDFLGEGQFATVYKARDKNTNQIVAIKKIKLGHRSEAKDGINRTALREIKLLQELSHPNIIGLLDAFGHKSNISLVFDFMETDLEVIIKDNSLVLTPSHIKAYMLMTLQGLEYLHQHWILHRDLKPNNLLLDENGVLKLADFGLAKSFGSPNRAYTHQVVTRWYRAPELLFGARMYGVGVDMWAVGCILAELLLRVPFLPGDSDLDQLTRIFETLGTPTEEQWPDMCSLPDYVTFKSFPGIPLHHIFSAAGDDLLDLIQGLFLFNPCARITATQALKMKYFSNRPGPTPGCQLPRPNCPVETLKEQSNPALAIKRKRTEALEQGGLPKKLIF
Sequence of UniProt P42336 (whole entry, unmodified, looked up): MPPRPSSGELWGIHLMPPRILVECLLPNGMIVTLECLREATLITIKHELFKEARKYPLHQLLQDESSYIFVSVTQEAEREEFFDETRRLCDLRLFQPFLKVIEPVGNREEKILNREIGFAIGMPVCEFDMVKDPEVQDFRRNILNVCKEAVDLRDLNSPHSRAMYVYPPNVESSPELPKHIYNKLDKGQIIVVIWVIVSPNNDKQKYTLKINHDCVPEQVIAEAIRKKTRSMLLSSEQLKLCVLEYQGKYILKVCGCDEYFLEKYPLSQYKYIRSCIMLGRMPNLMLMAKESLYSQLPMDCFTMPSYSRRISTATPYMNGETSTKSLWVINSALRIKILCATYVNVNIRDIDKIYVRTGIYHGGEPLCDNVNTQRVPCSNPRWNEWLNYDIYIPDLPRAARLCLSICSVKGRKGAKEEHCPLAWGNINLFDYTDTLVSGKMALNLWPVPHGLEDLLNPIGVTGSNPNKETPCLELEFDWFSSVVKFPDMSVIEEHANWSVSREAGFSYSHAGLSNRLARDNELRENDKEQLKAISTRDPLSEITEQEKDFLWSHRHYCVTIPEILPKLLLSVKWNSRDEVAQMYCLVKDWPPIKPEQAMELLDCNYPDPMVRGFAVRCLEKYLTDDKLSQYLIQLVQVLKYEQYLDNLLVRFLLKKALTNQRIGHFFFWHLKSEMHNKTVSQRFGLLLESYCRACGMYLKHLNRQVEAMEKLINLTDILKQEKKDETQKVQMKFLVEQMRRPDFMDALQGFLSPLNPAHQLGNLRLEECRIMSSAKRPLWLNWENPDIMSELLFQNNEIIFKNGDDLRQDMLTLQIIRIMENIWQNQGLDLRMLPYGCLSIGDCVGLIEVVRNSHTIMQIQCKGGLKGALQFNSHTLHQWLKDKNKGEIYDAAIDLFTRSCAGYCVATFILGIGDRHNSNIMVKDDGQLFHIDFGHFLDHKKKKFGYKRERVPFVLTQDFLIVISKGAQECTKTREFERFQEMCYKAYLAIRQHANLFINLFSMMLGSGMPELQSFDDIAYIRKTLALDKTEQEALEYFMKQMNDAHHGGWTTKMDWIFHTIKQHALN
Sequence of UniProt O00141 (whole entry, looked up): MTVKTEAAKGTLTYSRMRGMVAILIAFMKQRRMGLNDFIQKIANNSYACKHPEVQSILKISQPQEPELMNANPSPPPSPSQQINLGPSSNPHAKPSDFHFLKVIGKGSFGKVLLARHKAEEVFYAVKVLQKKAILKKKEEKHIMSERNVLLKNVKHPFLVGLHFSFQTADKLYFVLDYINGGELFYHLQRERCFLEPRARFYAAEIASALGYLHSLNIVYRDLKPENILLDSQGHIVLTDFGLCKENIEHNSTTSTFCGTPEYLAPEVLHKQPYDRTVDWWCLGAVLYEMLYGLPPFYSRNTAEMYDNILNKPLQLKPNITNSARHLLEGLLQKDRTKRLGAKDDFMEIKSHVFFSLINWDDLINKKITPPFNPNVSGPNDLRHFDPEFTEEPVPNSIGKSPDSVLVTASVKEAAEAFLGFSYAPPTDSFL
Sequence of UniProt Q06418 (whole entry, looked up): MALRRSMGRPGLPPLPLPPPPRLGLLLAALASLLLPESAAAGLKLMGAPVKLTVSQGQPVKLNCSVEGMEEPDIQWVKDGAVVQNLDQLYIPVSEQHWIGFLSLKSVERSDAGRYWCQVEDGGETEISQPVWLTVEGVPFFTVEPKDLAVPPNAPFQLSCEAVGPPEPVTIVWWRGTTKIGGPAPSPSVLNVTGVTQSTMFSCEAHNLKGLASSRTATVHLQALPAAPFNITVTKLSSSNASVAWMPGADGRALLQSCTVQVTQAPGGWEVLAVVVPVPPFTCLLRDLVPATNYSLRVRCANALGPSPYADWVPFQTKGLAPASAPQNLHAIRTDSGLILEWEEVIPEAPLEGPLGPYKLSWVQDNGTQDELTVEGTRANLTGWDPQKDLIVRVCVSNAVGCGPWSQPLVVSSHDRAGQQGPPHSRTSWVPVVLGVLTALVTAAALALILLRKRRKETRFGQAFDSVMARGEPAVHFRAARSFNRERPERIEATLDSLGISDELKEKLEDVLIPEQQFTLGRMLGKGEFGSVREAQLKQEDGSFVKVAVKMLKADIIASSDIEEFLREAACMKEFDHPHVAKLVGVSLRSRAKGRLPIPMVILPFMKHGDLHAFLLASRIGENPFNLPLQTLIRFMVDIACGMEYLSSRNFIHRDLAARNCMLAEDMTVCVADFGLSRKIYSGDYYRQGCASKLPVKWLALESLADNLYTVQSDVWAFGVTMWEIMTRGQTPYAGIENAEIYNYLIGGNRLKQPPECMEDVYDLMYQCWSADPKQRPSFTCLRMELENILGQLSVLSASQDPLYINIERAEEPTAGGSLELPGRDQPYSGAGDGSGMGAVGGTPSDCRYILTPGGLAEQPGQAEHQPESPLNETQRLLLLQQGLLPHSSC
Sequence of UniProt P36894 (whole entry, looked up): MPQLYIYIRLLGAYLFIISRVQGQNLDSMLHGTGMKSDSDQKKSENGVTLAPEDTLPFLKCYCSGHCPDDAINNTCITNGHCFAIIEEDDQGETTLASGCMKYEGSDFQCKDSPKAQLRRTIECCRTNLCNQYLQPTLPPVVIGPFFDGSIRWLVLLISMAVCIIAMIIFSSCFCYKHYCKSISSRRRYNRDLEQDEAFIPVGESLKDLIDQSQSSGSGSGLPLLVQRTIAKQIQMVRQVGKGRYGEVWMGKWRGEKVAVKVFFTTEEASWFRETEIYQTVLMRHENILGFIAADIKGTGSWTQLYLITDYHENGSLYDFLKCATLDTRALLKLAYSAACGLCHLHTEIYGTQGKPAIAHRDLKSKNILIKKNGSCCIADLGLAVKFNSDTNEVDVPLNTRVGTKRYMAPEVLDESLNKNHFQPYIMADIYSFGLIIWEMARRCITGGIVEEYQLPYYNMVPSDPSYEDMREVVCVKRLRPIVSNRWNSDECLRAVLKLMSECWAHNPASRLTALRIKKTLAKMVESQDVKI
Sequence of UniProt P07332 (whole entry, looked up): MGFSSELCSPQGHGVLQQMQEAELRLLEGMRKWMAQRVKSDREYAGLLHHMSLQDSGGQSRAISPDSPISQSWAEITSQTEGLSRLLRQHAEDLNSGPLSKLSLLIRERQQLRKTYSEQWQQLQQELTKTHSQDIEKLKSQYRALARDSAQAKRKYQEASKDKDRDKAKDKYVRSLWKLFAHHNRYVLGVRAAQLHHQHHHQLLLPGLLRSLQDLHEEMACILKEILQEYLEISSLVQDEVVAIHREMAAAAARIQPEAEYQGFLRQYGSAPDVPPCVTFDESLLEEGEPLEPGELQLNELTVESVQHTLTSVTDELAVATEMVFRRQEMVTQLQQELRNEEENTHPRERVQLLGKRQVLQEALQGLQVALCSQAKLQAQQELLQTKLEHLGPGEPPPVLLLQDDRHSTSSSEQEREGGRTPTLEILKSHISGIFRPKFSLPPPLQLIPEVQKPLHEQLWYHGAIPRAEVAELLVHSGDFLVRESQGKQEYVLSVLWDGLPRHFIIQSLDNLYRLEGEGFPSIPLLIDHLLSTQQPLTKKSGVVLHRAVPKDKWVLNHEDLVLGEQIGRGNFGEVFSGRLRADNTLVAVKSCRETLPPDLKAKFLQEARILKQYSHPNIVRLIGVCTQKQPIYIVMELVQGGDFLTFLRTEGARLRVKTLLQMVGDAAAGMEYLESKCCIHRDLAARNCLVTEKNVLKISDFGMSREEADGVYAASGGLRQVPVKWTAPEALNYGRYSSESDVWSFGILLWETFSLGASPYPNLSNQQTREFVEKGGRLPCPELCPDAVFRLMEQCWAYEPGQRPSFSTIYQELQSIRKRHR
Sequence of UniProt P11309 (whole entry, looked up): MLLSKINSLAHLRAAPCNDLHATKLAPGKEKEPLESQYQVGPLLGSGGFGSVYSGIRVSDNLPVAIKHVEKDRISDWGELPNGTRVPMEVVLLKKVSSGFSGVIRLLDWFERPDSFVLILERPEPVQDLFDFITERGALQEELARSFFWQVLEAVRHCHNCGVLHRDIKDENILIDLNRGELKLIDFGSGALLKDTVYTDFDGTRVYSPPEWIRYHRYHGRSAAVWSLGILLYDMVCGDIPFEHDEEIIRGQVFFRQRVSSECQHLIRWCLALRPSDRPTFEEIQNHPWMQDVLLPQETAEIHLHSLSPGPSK

Sample 1
Structure (SMILES): COc1ccc2cc(OCC3(C(=O)O)CN(C(=O)c4ccc(F)cc4)C3)ccc2c1
Tested at: 1 µM
Measurement: remaining binding
target = cAMP-dependent protein kinase catalytic subunit alpha (PRKACA, Homo sapiens, UniProt P17612); test = cell-free assay, competition with immobilised ligand; value = 100%
target = Epidermal growth factor receptor (EGFR, Homo sapiens, UniProt P00533, G719C); test = cell-free assay, competition with immobilised ligand; value = 100%
target = Tyrosine-protein kinase receptor TYRO3 (TYRO3, Homo sapiens, UniProt Q06418); test = cell-free assay, competition with immobilised ligand; value = 100%
target = Cyclin-dependent kinase 7 (CDK7, Homo sapiens, UniProt P50613); test = cell-free assay, competition with immobilised ligand; value = 100%
target = Receptor-interacting serine/threonine-protein kinase 2 (RIPK2, Homo sapiens, UniProt O43353); test = cell-free assay, competition with immobilised ligand; value = 100%
target = Mitogen-activated protein kinase kinase kinase kinase 3 (MAP4K3, Homo sapiens, UniProt Q8IVH8); test = cell-free assay, competition with immobilised ligand; value = 100%
target = Bone morphogenetic protein receptor type-1A (BMPR1A, Homo sapiens, UniProt P36894); test = binding, competition with immobilised ligand; value = 88%
target = Serine/threonine-protein kinase LATS1 (LATS1, Homo sapiens, UniProt O95835); test = cell-free assay, competition with immobilised ligand; value = 87%
target = Tyrosine-protein kinase ABL1, phosphorylated (ABL1, Homo sapiens, UniProt P00519, F317I); test = binding; value = 100%
target = LIM domain kinase 1 (LIMK1, Homo sapiens, UniProt P53667); test = cell-free assay, competition with immobilised ligand; value = 100%
target = Angiopoietin-1 receptor (TEK, Homo sapiens, UniProt Q02763); test = cell-free assay, competition with immobilised ligand; value = 100%
target = Phosphatidylinositol 4,5-bisphosphate 3-kinase catalytic subunit alpha isoform (PIK3CA, Homo sapiens, UniProt P42336, H1047L); test = cell-free assay, competition with immobilised ligand; value = 100%
target = Mitogen-activated protein kinase kinase kinase 5 (MAP3K5, Homo sapiens, UniProt Q99683); test = cell-free assay, competition with immobilised ligand; value = 98%
target = Serine/threonine-protein kinase pim-1 (PIM1, Homo sapiens, UniProt P11309); test = cell-free assay, competition with immobilised ligand; value = 96%
target = Serine/threonine-protein kinase Sgk1 (SGK1, Homo sapiens, UniProt O00141); test = cell-free assay, competition with immobilised ligand; value = 81%
target = Tyrosine-protein kinase Fes/Fps (FES, Homo sapiens, UniProt P07332); test = cell-free assay, competition with immobilised ligand; value = 100%

Sample 2
Target: MAFG, bZIP domain (human)
Technique: DHFR protein complementation
Matrix: yeast
Notes: single substitutions, most at no-binding floor
Reference: wild-type JUN-FOS pair
Direction: higher = stronger binding
Measurement: binding fitness
Parent: JUN, bZIP domain (human); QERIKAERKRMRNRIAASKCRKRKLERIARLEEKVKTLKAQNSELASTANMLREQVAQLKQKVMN; partner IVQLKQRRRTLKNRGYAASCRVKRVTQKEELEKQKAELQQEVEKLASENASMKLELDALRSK
Change = L31R; value = -1.45 natural log
Change = S43I; value = -1.2 natural log
Change = K39A; value = -1.17 natural log
Change = M51N; value = -1.5 natural log
Change = E32Q; value = -1.24 natural log
Change = L38N; value = -1.52 natural log
Change = R30N; value = -1.36 natural log
Change = T48H; value = -1.39 natural log

Sample 3
Cell line: Huh-7
Tested at: 10 µM
Time: 24 h
Measurement: viability
Structure (SMILES) = O=C(Oc1cccc2cccnc12)c1ccccc1; value = 64.1%
Structure (SMILES) = CC[C@H]1OC(=O)C[C@@H](O)[C@H](C)[C@@H](O[C@@H]2O[C@H](C)[C@@H](O[C@H]3C[C@@](C)(O)[C@@H](O)[C@H](C)O3)[C@H](N(C)C)[C@H]2O)[C@@H](CC=O)C[C@@H](C)C(=O)/C=C/C(C)=C/[C@@H]1CO[C@@H]1O[C@H](C)[C@@H](O)[C@@H](OC)[C@H]1OC; value = 102%
Structure (SMILES) = CCOC(=O)c1ccc(N)cc1; value = 104%
Structure (SMILES) = NC(=O)N1c2ccccc2CC(=O)c2ccccc21; value = 101%

Further values, each from its own experiment
FKH1 DNA-binding domain: Fork head protein homolog 1, DNA-binding domain (FKH1, Saccharomyces cerevisiae, UniProt P40466, residues 243-484)
Sequence of UniProt P40466 (243-484, looked up): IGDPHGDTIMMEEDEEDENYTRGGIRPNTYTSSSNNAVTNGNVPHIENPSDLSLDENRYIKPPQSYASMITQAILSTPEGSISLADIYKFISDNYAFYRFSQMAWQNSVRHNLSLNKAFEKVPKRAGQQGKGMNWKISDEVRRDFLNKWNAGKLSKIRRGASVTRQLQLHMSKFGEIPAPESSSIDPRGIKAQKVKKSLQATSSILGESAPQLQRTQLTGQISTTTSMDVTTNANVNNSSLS
Substance = CN(C)CCCn1cc(C2=C(c3c[nH]c4ccccc34)C(=O)NC2=O)c2ccccc21.Cl; test = AlphaScreen signal, AlphaScreen counter screen; system = His6 peptide without bromodomain; conditions = 50 µM, assay interference check; measurement = inhibition; value = 86.1%
Substance = CAAAACA; tested on = FKH1 DNA-binding domain; test = SELEX-seq; system = double-stranded DNA, one strand shown, in vitro; conditions = not given, 7-bp core, flanks averaged; how to read = reference: best-binding core, lower = stronger binding; measurement = relative binding free energy; value = 1.48 ddG/RT
Substance = CCOC(=O)CC(=O)CSc1ccc2nnc(-c3ccc(OC)c(OC)c3)n2n1; test = AlphaScreen signal, AlphaScreen counter screen; system = His6 peptide without bromodomain; conditions = 50 µM, assay interference check; measurement = inhibition; value = 10.4%
Substance = GAATACA; tested on = FKH1 DNA-binding domain; test = SELEX-seq; system = double-stranded DNA, one strand shown, in vitro; conditions = not given, 7-bp core, flanks averaged; how to read = reference: best-binding core, lower = stronger binding; measurement = relative binding free energy; value = 2.74 ddG/RT

Some of these lines once more (further values, each from its own experiment):
Substance = CN(C)CCCn1cc(C2=C(c3c[nH]c4ccccc34)C(=O)NC2=O)c2ccccc21.Cl; test = AlphaScreen signal, AlphaScreen counter screen; system = His6 peptide without bromodomain; conditions = 50 µM, assay interference check; measurement = inhibition; value = 86.1%
Substance = CAAAACA; tested on = FKH1 DNA-binding domain; test = SELEX-seq; system = double-stranded DNA, one strand shown, in vitro; conditions = not given, 7-bp core, flanks averaged; how to read = reference: best-binding core, lower = stronger binding; measurement = relative binding free energy; value = 1.48 ddG/RT
Substance = CCOC(=O)CC(=O)CSc1ccc2nnc(-c3ccc(OC)c(OC)c3)n2n1; test = AlphaScreen signal, AlphaScreen counter screen; system = His6 peptide without bromodomain; conditions = 50 µM, assay interference check; measurement = inhibition; value = 10.4%
Substance = GAATACA; tested on = FKH1 DNA-binding domain; test = SELEX-seq; system = double-stranded DNA, one strand shown, in vitro; conditions = not given, 7-bp core, flanks averaged; how to read = reference: best-binding core, lower = stronger binding; measurement = relative binding free energy; value = 2.74 ddG/RT
